Published values of several laboratories.
Target: NAD-dependent protein deacetylase sirtuin-1 (SIRT1, Homo sapiens, UniProt Q96EB6)
One construct used (Q96EB6 193-741): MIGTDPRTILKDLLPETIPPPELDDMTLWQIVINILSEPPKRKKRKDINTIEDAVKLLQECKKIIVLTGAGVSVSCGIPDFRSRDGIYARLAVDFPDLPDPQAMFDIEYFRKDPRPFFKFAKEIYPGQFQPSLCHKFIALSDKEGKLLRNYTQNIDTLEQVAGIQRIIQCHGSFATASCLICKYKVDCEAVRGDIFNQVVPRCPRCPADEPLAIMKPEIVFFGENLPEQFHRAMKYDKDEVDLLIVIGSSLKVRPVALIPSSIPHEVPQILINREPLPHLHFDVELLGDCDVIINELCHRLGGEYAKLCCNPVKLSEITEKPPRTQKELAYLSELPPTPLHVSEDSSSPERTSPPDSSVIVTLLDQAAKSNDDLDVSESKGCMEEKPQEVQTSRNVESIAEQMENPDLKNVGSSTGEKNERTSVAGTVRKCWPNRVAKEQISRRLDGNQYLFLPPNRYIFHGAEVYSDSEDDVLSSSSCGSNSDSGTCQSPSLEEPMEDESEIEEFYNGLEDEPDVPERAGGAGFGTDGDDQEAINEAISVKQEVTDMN

SMILES = CCCCCCCCCCCCNC(=S)NCCCC[C@H](NC(=O)OCc1ccccc1)C(=O)N[C@H](C)C(=O)N[C@@H](CCCNC(=N)N)C(N)=O; assay = enzyme activity, inhibitor; setting = 10 µM; endpoint = inhibition; value = 78%
SMILES = O=C(NC1CCC1)[C@H](Cc1c[nH]c2ccccc12)NC(=O)[C@H](CCCCNC(=S)NCCc1noc(=O)[nH]1)NS(=O)(=O)c1cccc(F)c1; assay = enzyme activity, inhibitor; setting = 10 µM; endpoint = inhibition; value = 37%
SMILES = CCCCCCCCCCCCNC(=S)NCCCC[C@H](NC(=O)OCc1ccccc1)C(=O)NC(C)(C)C(=O)N[C@@H](CCCNC(=N)N)C(N)=O; assay = enzyme activity, inhibitor; setting = 10 µM; endpoint = inhibition; value = 55%
SMILES = CC1(C)CC[C@@]2(CO)C(=C3C=C[C@@H]4[C@@]5(C)CC[C@H](O)[C@@](C)(CO)[C@@H]5CC[C@@]4(C)[C@]3(C)C[C@@H]2O)C1; assay = binding, microscale thermophoresis; setting = 40.3 nM; endpoint = MST normalised fluorescence; value = 910 a.u.
SMILES = Cn1sc(Nc2c(Cl)ccc3ncccc23)c(C#N)c1=O; assay = enzyme activity, inhibitor; setting = 10 µM; endpoint = inhibition; value = 10%
SMILES = O=C(O)CCNC(=S)NCCCC[C@H](NS(=O)(=O)c1cccc(F)c1)C(=O)N[C@@H](Cc1c[nH]c2ccccc12)C(=O)NC1CCC1; assay = enzyme activity, inhibitor; setting = 10 µM; endpoint = inhibition; value = 10%
SMILES = CCCCCCCCCCCCNC(=S)NCCCC[C@H](NC(=O)OCc1ccccc1)C(=O)N[C@@H](CCCNC(=N)N)C(=O)N[C@@H](CCCNC(=N)N)C(N)=O; assay = enzyme activity, inhibitor; setting = 1 µM; endpoint = inhibition; value = 81%
SMILES = COc1ccc2nc(C)ccc2c1Nc1sn(C)c(=O)c1C#N; assay = enzyme activity, inhibitor; setting = 10 µM; endpoint = inhibition; value = 7%
SMILES = CC(C)C(OC(=O)C(C)(C)C)n1nnnc1CCNC(=S)NCCCC[C@H](NS(=O)(=O)c1cccc(F)c1)C(=O)N[C@@H](Cc1c[nH]c2ccccc12)C(=O)NC1CCC1 (stereo partly drawn); assay = enzyme activity, inhibitor; setting = 1 µM; endpoint = inhibition; value = 76%

Some of these lines once more:
SMILES = CC1(C)CC[C@@]2(CO)C(=C3C=C[C@@H]4[C@@]5(C)CC[C@H](O)[C@@](C)(CO)[C@@H]5CC[C@@]4(C)[C@]3(C)C[C@@H]2O)C1; assay = binding, microscale thermophoresis; setting = 40.3 nM; endpoint = MST normalised fluorescence; value = 910 a.u.
